Results collected from several papers.
Each numbered part is a random draw from the data of one study; scales do not carry over between parts. Substitutions count along the parent as printed.

Sample 1
Target: Interferon regulatory factor 5, full length, phosphomimetic (IRF5, Homo sapiens, UniProt Q13568-2, residues 1-514, K96S/S451D/S453D/S456D/S462D)
Method: protein-binding microarray
Molecule type: double-stranded DNA, one strand shown
Medium: in vitro
Concentration: 250 nM
Setting: 60-bp whole probe
Together with: salmon DNA 0.4 mg/ml
Relative to: random background probes
Direction: higher = stronger binding
Constant ends, left off below: GCCTAGCAC … GTCTTGATTCGCTTGACGCTGCTG
The log fluorescence of `GACGAACTGGGATATCGAGACGTGCTA` is reported as -0.0218 z-score.
`TCATGCTTGTGTTTATTACTGTGCTAG` has a log fluorescence of 0.251 z-score.
`TTAGCTTTCAGTATCGATTAGTGCTAG` has a log fluorescence of 9.75 z-score.
`TTAGGACTGCTACTGCTTAAGTGCTAG` gave a log fluorescence of -0.398 z-score.
With `GACGGACTGGGACTAGGGACGTGCTAG` the log fluorescence was -0.717 z-score.
With `TCACATATTTGTTTCCAACTGTGCTAG` the log fluorescence was 0.835 z-score.
The log fluorescence of `TTAGGACTGCTTTTCCTGTAGTGCTAG` is reported as -0.0255 z-score.
With `TCATGTCTGTGTCACAGACTGTGCTAG` the log fluorescence was -0.14 z-score.
For `TCACTTTTTTTTTTCCCACTGTGCTAG`, the log fluorescence was 1.12 z-score.
`GACGATATCAGTGTCGAGACGTGCTAG` gave a log fluorescence of 0.784 z-score.
With `GACGGACTGGGTATTGGGACGTGCTAG` the log fluorescence was -0.737 z-score.
`GACGATTTCAGACTGTAGACGTGCTAG` has a log fluorescence of 0.429 z-score.
With `GACGGTATCCGTTTCCTGACGTGCTAG` the log fluorescence was 0.305 z-score.
With `TCACCTTCACCTCTCTGACTGTGCTAG` the log fluorescence was 0.579 z-score.
`GAAGATATCGGGTATCGAGACGTGCTA` has a log fluorescence of 2.47 z-score.
With `GACGGTATCGACACTGGAGACGTGCTA` the log fluorescence was 1.64 z-score.
`TCATCTCCCAGACTGGAGTGGTGCTAG` has a log fluorescence of -0.376 z-score.
For `GACGGACTCCTTTTCCTGACGTGCTAG`, the log fluorescence was -0.174 z-score.
The log fluorescence of `TTAGATCTCAGTTTCGTTTAGTGCTAG` is reported as 7.66 z-score.

Sample 2
Target: Centromere-binding protein 1, full length, His-tagged (CBF1, Saccharomyces cerevisiae, UniProt P17106, residues 1-351)
Sequence of UniProt P17106 (whole entry, looked up): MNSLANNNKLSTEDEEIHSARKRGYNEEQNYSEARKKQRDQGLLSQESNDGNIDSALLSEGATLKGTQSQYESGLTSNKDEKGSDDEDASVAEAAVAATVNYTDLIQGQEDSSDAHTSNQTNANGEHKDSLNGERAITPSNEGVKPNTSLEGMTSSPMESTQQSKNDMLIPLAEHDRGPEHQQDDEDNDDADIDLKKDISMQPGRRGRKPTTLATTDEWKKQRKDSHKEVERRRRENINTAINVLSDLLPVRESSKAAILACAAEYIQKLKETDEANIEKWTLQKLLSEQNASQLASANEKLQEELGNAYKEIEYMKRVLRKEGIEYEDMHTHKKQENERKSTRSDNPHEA
Method: competition protein-binding microarray
Molecule type: double-stranded DNA, one strand shown
Medium: in vitro
Concentration: 2 µM
Setting: whole 60-bp probe, lowest competitor level
Together with: Pho4 competitor, 0.05 µM
Direction: higher = stronger binding
Constant ends, left off below: … GTCTTGATTCGCTTGACGCTGCTG
With `ACTCTTTCGCTAGTCCATGTGATTCTTTGAGAGTTT` the fluorescence intensity was 403 a.u.
`CTTCTGTAAATTTAACACGTGTTTTGACGCGCCCCG` gave a fluorescence intensity of 2570 a.u.
For `GATTCCATTCGATTCCATGTGATGATTCCATTCTAT`, the fluorescence intensity was 211 a.u.
The fluorescence intensity of `TCCAGGGAAACAAGCCAGGCGCAGGCACCTTAATAA` is reported as 61.5 a.u.
The fluorescence intensity of `CGTCCTAGTGATTTTCACGTGAGTTCCATGAGGAAG` is reported as 994 a.u.
With `CTTCTGTAAATTTGCTGAGTGGGTGGACGCGCCCCG` the fluorescence intensity was 95.3 a.u.
With `TATAGGGCTCTGAGTCTCGTGGTCGAGGAATCCGGC` the fluorescence intensity was 148 a.u.
With `AAAGCGGTAATTTGTCACAGAACTTCACATATCTAT` the fluorescence intensity was 108 a.u.
`CTTTGTCTCCATTGCGGCGTGCTAATTCTTCTACTA` has a fluorescence intensity of 81.9 a.u.
`GTCTTGTCTCATTGCCGGGTGGGTGTCCCCACTTCA` gave a fluorescence intensity of 78.8 a.u.
With `AAGTGCCGTTTCTAAAACGTGGTCGAATAATCCTCA` the fluorescence intensity was 176 a.u.
For `TCCCGTACATCGATGTACGTGATGGGTTTTTCTCAT`, the fluorescence intensity was 111 a.u.
For `TTTCAATTCTATCTTACTTTTCATTGCCATTTTACT`, the fluorescence intensity was 85.2 a.u.
With `ACCTAGAGAAACCAAAACGTGATGGCCTGCTGGGAT` the fluorescence intensity was 276 a.u.
`CCGATCTAGCGTAGTCACCTGATAACAGGAACATAG` has a fluorescence intensity of 1260 a.u.

Sample 3
Target: Sal-like protein 4, full length isoform A (SALL4, Homo sapiens, UniProt Q9UJQ4, residues 1-1053)
Sequence of UniProt Q9UJQ4 (whole entry, looked up): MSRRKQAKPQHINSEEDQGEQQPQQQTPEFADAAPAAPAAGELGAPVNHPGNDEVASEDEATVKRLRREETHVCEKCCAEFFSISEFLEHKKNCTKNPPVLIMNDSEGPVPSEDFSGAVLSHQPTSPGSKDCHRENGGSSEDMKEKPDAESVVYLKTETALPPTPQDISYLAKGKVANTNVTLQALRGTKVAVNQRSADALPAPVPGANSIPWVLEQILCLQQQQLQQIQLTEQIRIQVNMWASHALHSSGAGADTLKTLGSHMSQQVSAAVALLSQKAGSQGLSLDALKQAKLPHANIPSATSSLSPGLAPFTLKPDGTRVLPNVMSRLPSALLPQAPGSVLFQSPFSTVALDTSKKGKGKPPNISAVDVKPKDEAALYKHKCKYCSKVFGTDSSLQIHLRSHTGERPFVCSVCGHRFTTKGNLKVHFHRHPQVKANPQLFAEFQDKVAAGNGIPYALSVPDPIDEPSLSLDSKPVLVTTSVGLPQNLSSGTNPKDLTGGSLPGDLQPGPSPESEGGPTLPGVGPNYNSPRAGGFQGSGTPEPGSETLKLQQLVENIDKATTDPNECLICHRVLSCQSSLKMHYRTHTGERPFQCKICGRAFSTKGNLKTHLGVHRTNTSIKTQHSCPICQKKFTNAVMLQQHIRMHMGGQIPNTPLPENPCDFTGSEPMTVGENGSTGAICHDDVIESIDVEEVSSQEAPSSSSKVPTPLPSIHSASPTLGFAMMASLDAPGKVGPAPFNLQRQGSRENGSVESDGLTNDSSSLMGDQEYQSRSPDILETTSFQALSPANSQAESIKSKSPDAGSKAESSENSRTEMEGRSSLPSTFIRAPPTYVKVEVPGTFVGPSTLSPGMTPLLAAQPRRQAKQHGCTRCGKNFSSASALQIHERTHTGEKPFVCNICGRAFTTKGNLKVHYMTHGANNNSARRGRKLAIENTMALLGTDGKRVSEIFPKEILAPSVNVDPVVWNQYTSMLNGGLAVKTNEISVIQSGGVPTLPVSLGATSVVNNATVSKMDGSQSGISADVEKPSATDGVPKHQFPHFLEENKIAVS
Method: universal PBM
Molecule type: double-stranded DNA, one strand shown
Medium: in vitro
Concentration: 600 nM
Setting: 8-mer, flanks averaged, mean of replicates
Direction: higher = stronger binding
`CTTCCTGA` has an E-score of 0.0469.
The E-score of `CCCTACGA` is reported as -0.0558.
`CCACGGCG` has an E-score of -0.291.
The E-score of `ACACTTGC` is reported as 0.106.
For `AAGGATGC`, the E-score was -0.0814.
For `AAAGACTG`, the E-score was 0.0421.
The E-score of `ACAGATGA` is reported as 0.0722.
The E-score of `AGAGCGCG` is reported as -0.246.
`AAAAATGC` gave an E-score of 0.173.
`ATACCCAG` gave an E-score of -0.0479.
For `AAGGATTG`, the E-score was 0.127.
For `AGGAAAGA`, the E-score was 0.00928.
The E-score of `CTGGGGAC` is reported as -0.362.
For `CTATTGGC`, the E-score was -0.0066.
`CTTCAGCC` gave an E-score of -0.175.
The E-score of `CAAGCTGG` is reported as -0.153.

Sample 4
Target: CCNE1, cyclin fold, Cln2 fusion (human)
Method: yeast growth competition, sequencing
Medium: yeast
Setting: weak parent motif
Relative to: not given
Direction: higher = stronger binding
Starting sequence: PKN2 docking peptide (human); VSAVQKLDFSDTM
Under “normalised enrichment score”, `K6E` is recorded as -0.0194.
Under “normalised enrichment score”, `K6F` is recorded as 0.494.
For `T12K`, “normalised enrichment score” read 0.264.
Under “normalised enrichment score”, `T12F` is recorded as 0.934.
Under “normalised enrichment score”, `M13P` is recorded as -0.191.
`T12H`: “normalised enrichment score” 0.612.
`V1L`: “normalised enrichment score” 0.0939.
For `M13K`, “normalised enrichment score” read 0.184.
For `Q5R`, “normalised enrichment score” read 5.6.

Some of these lines once more (sample 1):
`TCATGCTTGTGTTTATTACTGTGCTAG` has a log fluorescence of 0.251 z-score.
`TTAGCTTTCAGTATCGATTAGTGCTAG` has a log fluorescence of 9.75 z-score.
`TTAGGACTGCTACTGCTTAAGTGCTAG` gave a log fluorescence of -0.398 z-score.
With `GACGGACTGGGACTAGGGACGTGCTAG` the log fluorescence was -0.717 z-score.
With `TCACATATTTGTTTCCAACTGTGCTAG` the log fluorescence was 0.835 z-score.
The log fluorescence of `TTAGGACTGCTTTTCCTGTAGTGCTAG` is reported as -0.0255 z-score.
With `TCATGTCTGTGTCACAGACTGTGCTAG` the log fluorescence was -0.14 z-score.
